# Measured values collected from several papers.
# Compare with care: the assays were run in different laboratories. “And” joins repeats or separate records; there may be more than shown. ± gives the spread as reported.
Compound,cell line,test,test system,setting,how to read,endpoint,result
O=S(=O)(O)C(F)(F)C(F)(F)C(F)(F)C(F)(F)C(F)(F)C(F)(F)C(F)(F)C(F)(F)F,hTERT-RPTEC-OAT1,,,"concentration not given, 96-well plate",,LDH release,5.52 mU/mL and 5.1 mU/mL and 5.45 mU/mL and 3.02 mU/mL
COc1cc(C=CC(=O)O)ccc1OC(C)=O,HaCaT,MTT,,"24 h, 10% FBS",,subcytotoxic concentration,50 µM
CC(C)C[C@H](NC(=O)[C@H](CCCNC(=N)N)NC(=O)[C@H](CCCNC(=N)N)NC(=O)[C@H](CCCNC(=N)N)NC(=O)[C@@H]1CCCN1C(=O)[C@H](Cc1ccccc1)NC(=O)[C@H](Cc1ccc(O)cc1)NC(=O)[C@H](CCCNC(=N)N)NC(=O)[C@H](Cc1ccc(O)cc1)NC(=O)[C@@H](NC(=O)[C@H](CC(C)C)NC(=O)[C@H](Cc1ccc(O)cc1)NC(=O)[C@H](CCCNC(=N)N)NC(=O)[C@H](Cc1c[nH]cn1)NC(=O)[C@@H]1CCCN1C(=O)[C@H](Cc1c[nH]c2ccccc12)NC(=O)[C@H](Cc1ccc(O)cc1)NC(=O)[C@H](Cc1ccccc1)NC(=O)[C@@H]1CCCN1C(=O)[C@H](CCC(N)=O)NC(=O)[C@H](Cc1ccccc1)NC(=O)[C@@H]1CCCN1C(=O)[C@H](Cc1ccccc1)NC(=O)[C@H](CCCNC(=N)N)NC(=O)[C@H](Cc1c[nH]cn1)NC(=O)[C@H](CC(N)=O)NC(=O)[C@H](CS)NC(=O)[C@H](CCCNC(=N)N)NC(=O)[C@H](CO)NC(=O)[C@@H]1CCCN1C(=O)[C@@H](NC(=O)[C@H](Cc1ccccc1)NC(=O)[C@@H]1CCCN1C(=O)[C@H](CCCNC(=N)N)NC(=O)[C@H](CC(N)=O)NC(=O)[C@@H]1CCCN1C(=O)[C@H](Cc1ccccc1)NC(=O)[C@H](CCCNC(=N)N)NC(=O)[C@@H](N)Cc1ccccc1)C(C)C)[C@@H](C)O)C(=O)N[C@@H](CCC(N)=O)C(=O)N[C@@H](CCCNC(=N)N)C(=O)O,HaCaT,"cell viability, MTT",,,,CC50,32.4 µM
O=S(=O)(c1ccc(O)cc1)c1ccc(O)cc1,"HepG2 spheroids, dissociated",annexin V-FITC/PI flow cytometry,,"1 µM, 96 h",,viable cells,32.2 ± 19.3%
CC1=C(O)C(=O)C=C2C1=CC=C1[C@@]2(C)CC[C@@]2(C)[C@@H]3C[C@](C)(C(=O)O)CC[C@]3(C)CC[C@]12C,COS-7,,,"10 µM, 24 h, 0.1% DMSO, unit not given",relative to: vehicle control,necrotic cells,2.14 ± 1.51
O=C(O)C(F)(F)C(F)(F)C(F)(F)C(F)(F)C(F)(F)C(F)(F)C(F)(F)C(F)(F)C(F)(F)C(F)(F)F,hTERT-RPTEC-OAT1,LDH release,culture medium,"concentration not given, 24 h, 96-well plate",,LDH activity in medium,3.94 mU/mL
C=C(C)[C@@]12C[C@@H](COC(=O)c3ccccc3)[C@@]34OC5(O[C@@H]1[C@@H]3[C@@H]1O[C@]1(CO)[C@@H](O)[C@@]1(O)[C@H]4[C@H]([C@H](C)[C@@H]1OC(=O)c1ccccc1)[C@H](C)CCCCCC[C@H]5O)O2,MT-4,cell viability,,,,IC50,4.13 ± 0.43 µM
CC[C@H](C)[C@H](NC(=O)[C@H](CCC(=O)O)NC(=O)[C@H](Cc1ccccc1)NC(=O)[C@H](CO)NC(=O)[C@H](CCCCN)NC(=O)[C@H](CCCCN)NC(=O)[C@H](CC(C)C)NC(=O)[C@H](CCCNC(=N)N)NC(=O)[C@H](CC(C)C)NC(=O)[C@@H]1CCCN1C(=O)[C@@H]1CCCN1C(=O)[C@@H](N)Cc1c[nH]cn1)C(=O)N[C@@H](CC(C)C)C(=O)N[C@H](C(=O)N[C@@H](CCCNC(=N)N)C(=O)N[C@@H](CCCCN)C(=O)N1CCC[C@H]1C(=O)N[C@@H](CCSC)C(=O)N[C@@H](CO)C(=O)N[C@@H](CO)C(=O)N[C@@H](CCCCN)C(=O)N1CCC[C@H]1C(=O)N[C@@H](CCCCN)C(=O)N1CCC[C@H]1C(=O)N1CCC[C@H]1C(=O)N1CCC[C@H]1C(=O)N[C@@H](CCCNC(=N)N)C(=O)N[C@@H](CCCCN)C(=O)N[C@@H](Cc1ccc(O)cc1)C(=O)N[C@@H](Cc1ccccc1)C(=O)N[C@@H](CCCCN)C(=O)N[C@@H](CO)C(=O)O)C(C)C,HaCaT,"cell viability, MTT",,24 h,,CC50,63.5 µM
O=C1c2ccccc2C(=O)c2ccccc21,HK-2 co-cultured with HepaRG,MTT,,"66.67 µM, 24 h",relative to: untreated control,viability,144 ± 22.4%
Cc1cc(C(C)(C)c2ccc(O)c(C)c2)ccc1O,HepG2 spheroids,annexin V-FITC/PI flow cytometry,,"1 µM, 24 h",,necrotic cells,5.76 ± 1.6%
COc1ccc2c(c1OC)C(=O)c1c(cc(C)c(O)c1OC)C2=O,HepaRG co-cultured with HK-2,MTT,,"266.67 µM, 48 h",relative to: untreated control,cell viability,53.3 ± 10.9%
Nc1nc(O)c2ncn(COC(CO)CO)c2n1,HEL,cell morphology,,,,minimal cytotoxic concentration,> 100 µM
CCc1cccc(C)c1N(C(=O)CCl)C(C)COC (stereo not drawn),MCF7 AREc32 cells,"cell viability, IncuCyte imaging",,"24 h, freely dissolved concentration",,IC10,138 µM
CN(N=O)[C@H]1CC[C@@H](c2ccc(Cl)c(Cl)c2)c2ccccc21,TK6 expressing CYP2B6,,,"0.01 µM, 4 h, without S9",relative to: vehicle,relative survival,84.5%
C[C@@H](O)[C@H](NC(=O)CNC(=O)CNC(=O)CNC(=O)c1ccc2c(c1)C(=O)OC21c2ccc(O)cc2Oc2cc(O)ccc21)C(=O)N[C@@H](Cc1ccccc1)C(=O)N[C@@H](Cc1ccccc1)C(=O)N[C@@H](Cc1ccc(O)cc1)C(=O)NCC(=O)NCC(=O)N[C@@H](CO)C(=O)N[C@@H](CCCNC(=N)N)C(=O)NCC(=O)N[C@@H](CCCCN)C(=O)N[C@@H](CCCNC(=N)N)C(=O)N[C@@H](CC(N)=O)C(=O)N[C@@H](CC(N)=O)C(=O)N[C@@H](Cc1ccccc1)C(=O)N[C@@H](CCCCN)C(=O)N[C@H](C(=O)N[C@@H](CCC(=O)O)C(=O)N[C@@H](CCC(=O)O)C(=O)N[C@@H](Cc1ccc(O)cc1)C(N)=O)[C@@H](C)O,hCMEC/D3 monolayers,"BBB permeability, Transwell, refers to: CF-labelled compound",EGM-2 medium,"concentration not given, 1 h, apical to basal",relative to: fluorescence added apically,transport ratio,4.8%
COc1cccc2c1C(=O)c1c(O)c3c(c(O)c1C2=O)C[C@@](O)(C(=O)CO)C[C@@H]3O[C@H]1C[C@H](N)[C@H](O)[C@H](C)O1,MCF7,MTT,,"10 µM, 72 h, 10% FBS",,viability,30%
O=c1ccc2ccccc2o1,HepG2,refers to: heme oxygenase 1,,6 h,,point of departure,828 µM
CC[C@H](C)[C@H](NC(=O)[C@H](C)NC(=O)[C@H](Cc1c[nH]cn1)NC(=O)CNC(=O)CNC(=O)CNC(=O)c1ccc2c(c1)C(=O)OC21c2ccc(O)cc2Oc2cc(O)ccc21)C(=O)N[C@@H](Cc1ccc(O)cc1)C(=O)N1CCC[C@H]1C(=O)N[C@@H](CCCNC(=N)N)C(=O)N[C@@H](Cc1c[nH]cn1)C(N)=O,hCMEC/D3 monolayers,"BBB permeability, Transwell, refers to: CF-labelled compound",EGM-2 medium,"concentration not given, 2 h, apical to basal",relative to: fluorescence added apically,transport ratio,8.5%
C#CCCC[C@H]1OC(=O)[C@H](C(C)C)N(C)C(=O)[C@@H]2CCCN2C(=O)[C@H]([C@@H](C)CC)OC(=O)[C@H]([C@@H](C)CC)N(C)C(=O)[C@H]([C@@H](C)CC)NC(=O)[C@H]1C,HEK293,resazurin reduction,,24 h,,LC50,> 30 µM
Oc1ccc(C(c2ccc(O)cc2)(C(F)(F)F)C(F)(F)F)cc1,"HepG2 spheroids, dissociated",annexin V-FITC/PI flow cytometry,,"10 µM, 96 h",,viable cells,41.6 ± 15.5%
O=C(O)C(F)(F)C(F)(F)C(F)(F)F,hTERT-RPTEC-OAT1,LDH release,culture medium,"concentration not given, 24 h, 96-well plate",,LDH activity in medium,5.27 mU/mL
CC(C)(C)OC(=O)NCC(=O)N[C@@H](Cc1ccccc1)C(=O)N[C@H](C=O)Cc1c[nH]cn1,HEL,cell morphology,,,,minimum cytotoxic concentration,> 100 µM
Cc1cc2c(c(O)c1O)C(=O)c1c(O)cc(O)cc1C2=O,HK-2 co-cultured with HepaRG,MTT,,"66.67 µM, 24 h",relative to: untreated control,cell viability,107 ± 13.2%
CCCCC1CNC2CCc3ccc(OC)cc3C12.Cl (racemic),MDCK-MDR1 cells,,,,,efflux ratio,1.26
CN(C)CCOc1ccc(/C(=C(/CCCl)c2ccccc2)c2ccccc2)cc1,"MRC-5, mock-infected",nuclei count,,96 h,,LD50,17.4 µM
CC(=O)OC[C@H]1O[C@@H](Oc2cc(O)cc3cc4oc(C)cc(=O)c4c(O)c23)[C@H](O)[C@@H](O)[C@@H]1O,HK-2 co-cultured with HepaRG,MTT,,"66.67 µM, 48 h",relative to: untreated control,cell viability,91.1 ± 3.09%
CC[C@H](C)[C@H](NC(=O)CNC(=O)[C@H](CCSC)NC(=O)[C@H](CO)NC(=O)[C@@H](NC(=O)[C@H](CCC(N)=O)NC(=O)[C@H](CC(C)C)NC(=O)CNC(=O)[C@@H](NC(=O)[C@H](CO)NC(=O)[C@H](CCCCN)NC(=O)[C@H](CC(C)C)NC(=O)[C@H](CCCCN)NC(=O)[C@H](CCCCN)NC(=O)[C@H](CCCCN)NC(=O)[C@@H](NC(=O)[C@H](CCCCN)NC(=O)[C@@H]1CSSC[C@H](NC(=O)[C@H](CCCCN)NC(=O)[C@@H](N)CCCCN)C(=O)N[C@@H](CCCCN)C(=O)N[C@@H](Cc2ccccc2)C(=O)N[C@@H](CC(C)C)C(=O)N1)C(C)C)C(C)C)[C@@H](C)CC)C(=O)O,Xenopus laevis kidney cells,MTT,,24 h,,lowest toxic concentration,> 6.25 µM
